Assay results pooled from the literature.
Protocols differ between the studies behind these lines. Several values in a cell are separate wells, animals, samples, runs or records. ± gives the spread as reported.
B1: human annexin A1; sequence looked up; chain AMVSEFLKQAWFIENEEQEYVQTVKSSKGGPGSAVSPYPTFNPSSDVAALHKAIMVKGVDEATIIDILTKRNNAQRQQIKAAYLQETGKPLDETLKKALTGHLEEVVLALLKTPAQFDADELRAAMKGLGTDEDTLIEILASRTNKEIRDINRVYREELKRDLAKDITSDTSGDFRNALLSLAKGDRSEDFGVNEDLADSDARALYEAGERRKGTDVNVFNTILTTRSYPQLRRVFQKYTKYSKHDMNKVLDLELKGDIEKCLTAIVKCATSKPAFFAEKLHQAMKGVGTRHKALIRIMVSRSEIDMNDIKAFYQKMYGISLCQAILDETKGDYEKILVALCGGN
B2: human hnRNP D; sequence looked up; chain SEEQFGGDGAAAAATAAVGGSAGEQEGAMVAATQGAAAAAGSGAGTGGGTASGGTEGGSAESEGAKIDASKNEEDEGHSNSSPRHSEAATAQREEWKMFIGGLSWDTTKKDLKDYFSKFGEVVDCTLKLDPITGRSRGFGFVLFKESESVDKVMDQKEHKLNGKVIDPKRAKAMKTKEPVKKIFVGGLSPDTPEEKIREYFGGFGEVESIELPMDNKTNKRRGFCFITFKEEEPVKKIMEKKYHNVGLSKCEIKVAMSKEQYQQQQQWGSRGGFAGRARGRGGGPSQNWNQGYSNYWNQGYGNYGYNSQGYGGYGGYDYTGYNNYYGYGDYSNQQSGYGKVSRRGGHQNSYKPY
UniProt Q64663, sequence (whole entry, unmodified, looked up): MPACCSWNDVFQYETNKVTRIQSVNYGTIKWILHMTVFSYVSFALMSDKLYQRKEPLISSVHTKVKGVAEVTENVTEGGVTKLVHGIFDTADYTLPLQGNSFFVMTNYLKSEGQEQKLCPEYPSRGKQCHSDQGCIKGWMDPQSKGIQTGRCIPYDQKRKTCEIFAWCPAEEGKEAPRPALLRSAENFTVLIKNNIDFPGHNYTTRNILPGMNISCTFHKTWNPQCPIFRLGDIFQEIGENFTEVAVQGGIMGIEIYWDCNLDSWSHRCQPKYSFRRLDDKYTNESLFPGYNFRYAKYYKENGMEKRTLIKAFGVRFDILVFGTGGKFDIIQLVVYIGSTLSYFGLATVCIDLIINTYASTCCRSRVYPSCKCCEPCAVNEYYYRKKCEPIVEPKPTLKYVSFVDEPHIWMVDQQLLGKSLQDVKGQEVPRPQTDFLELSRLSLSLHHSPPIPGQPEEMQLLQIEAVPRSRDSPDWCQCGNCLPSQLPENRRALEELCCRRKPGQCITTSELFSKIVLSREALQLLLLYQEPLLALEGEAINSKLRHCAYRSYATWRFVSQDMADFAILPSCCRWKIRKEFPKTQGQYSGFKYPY

The bilirubin of `caspofungin` is reported as 11.8 µmol/L (adult ICU patients, mITT, serum; dose not given, Follow-up).
`POTE ankyrin domain E (human)`: “log2 fold change” -0.39 (CYB5R4 knockout human cells; PP4 interaction, 3xFLAG-PP4C IP-MS; concentration not given; relative to: CYB5R4 KO over parental).
`Peginesatide` has a phosphorylation level of 9.8 fold (UT7/EPO; tyrosine phosphorylation, LC-MS/MS phosphoproteomics, GluC, refers to: JAK2 tyrosine 570; 10 nM, 15 min, with: 10 U/mL EPO; relative to: vehicle).
For `cotadutide`, the metabolite level was 0.69 ± 0.25 scaled intensity (metabolomics, refers to: hepatic 1-palmitoylglycerol (16:0); ob/ob mice on AMLN diet, NASH model, liver; dose not given).
For `Teicoplanin`, “ultrafiltrate solubility loss” read 4.17% (ultrafiltration; low QC).
`PMESGICTIV` has a binding intensity of 0.0266 (construct, MBP fusion, human SCRIB, PDZ 3-4; automated holdup; peptide, purified PDZ protein; concentration not given, unit not given; relative to: biotin control resin, higher = stronger binding).
With `MTVCNASQRQAHAQATAVSL` the selectivity ratio was 0.84 ± 0.39 (HCC78; phage binding; peptide; relative to: targeting over control phage).
`GSGAGICTIV` gave a binding intensity of -0.0437 (construct, MBP fusion, human SCRIB, PDZ 3-4; automated holdup; peptide, purified PDZ protein; concentration not given, unit not given; relative to: biotin control resin, higher = stronger binding).
`Polymyxin B`: “glutathione peroxidase activity” 2.83 U/mg and 2.7 U/mg and 2.79 U/mg (Klebsiella pneumoniae; ATCC 43863; concentration not given).
Under cross-linked residues, `FGA (Homo sapiens, UniProt P02671)` is recorded as “K467 to K391” (CABIN1 (Homo sapiens, UniProt Q9Y6J0); cross-linking MS; with: DSSO).
The MIC of `colistin` is reported as ≤ 1 µg/mL (Pseudomonas aeruginosa; clinical isolate RKI 393/11).
`B1 (human annexin A1)`: “log2 fold change” 1.57 (CYB5R4 knockout human cells; PP4 interaction, 3xFLAG-PP4C IP-MS; concentration not given; relative to: CYB5R4 KO over parental).
For `FNA / CGLSGLGVA-NH2 ([18F]FNA-labelled, C-amide)`, the tissue uptake was 0.18 %ID/g (ex vivo gamma counting; peptide, healthy mouse, brain; 60 min post injection).
`B2 (human hnRNP D)` — result for “log2 fold change”: -1.19 (PP6C (human); co-immunoprecipitation, IP-MS; CYB5R4 knockout cells; concentration not given; relative to: CYB5R4 knockout over parental).
With `BzATP` the normalized current was 0.327 and 0.349 and 0.208 (P2X purinoceptor 7 (P2rx7, Rattus norvegicus, UniProt Q64663, I214A/Q143A/R125A); ion current, agonist, two-electrode voltage clamp; Xenopus oocytes; 100 µM).
The binding intensity of `PKRSFIESNV` is reported as 0.732 (construct, MBP fusion, human SCRIB, PDZ 3-4; automated holdup; peptide, crude extract; concentration not given, uncorrected, unit not given; relative to: biotin control resin, higher = stronger binding).
Under “rate constant k3”, `11-deoxycorticosterone` is recorded as 0.0832 min⁻¹ (CYP11B2 (human); substrate binding, stopped-flow kinetic modelling; 4-state branched induced-fit model, with: equimolar adrenodoxin).
`human HADHA` — result for “log2 fold change”: 0.02 (PP6C (human); co-immunoprecipitation, IP-MS; CYB5R4 knockout cells; concentration not given; relative to: CYB5R4 knockout over parental).

Repeated from above:
Under cross-linked residues, `FGA (Homo sapiens, UniProt P02671)` is recorded as “K467 to K391” (CABIN1 (Homo sapiens, UniProt Q9Y6J0); cross-linking MS; with: DSSO).
